Experimental data of several laboratories.
Each numbered part is a random draw from the data of one study; scales do not carry over between parts. Positions count from the first letter of the parent shown.

Series 1
Target: CCNB2, cyclin fold, Cln2 fusion (human)
Technique: yeast growth competition, sequencing
Matrix: yeast
Setting: weak parent motif
Baseline: not given
Reading: higher = stronger binding
Starting sequence: CDC25A docking peptide (human); PPHRRRLLFACSP
Variant | normalised enrichment score
PPHIRRLLFACSP [R4I] | 1.12
PPHRRRLLFALSP [C11L] | 0.633
PPHRRRLLFMCSP [A10M] | 0.477
HPHRRRLLFACSP [P1H] | 0.784
PPHRRRLLFACSM [P13M] | -0.0786
PPHRRRLLFGCSP [A10G] | 0.47
DPHRRRLLFACSP [P1D] | 0.193
PPQRRRLLFACSP [H3Q] | 0.324

Series 2
Target: Histone acetyltransferase KAT6A, winged helix 1, GST fusion (KAT6A, Homo sapiens, UniProt Q92794, residues 1-85)
Technique: protein binding microarray
Molecule type: double-stranded DNA, one strand shown
Matrix: in vitro
Concentration: not given
Setting: 8-mer, flanks averaged, mean of 2 arrays, mostly near background
Baseline: not given
Reading: higher = stronger binding
Target sequence (chain): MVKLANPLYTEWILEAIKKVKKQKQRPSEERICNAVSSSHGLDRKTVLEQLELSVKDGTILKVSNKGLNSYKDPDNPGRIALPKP
Strand | E-score
ATCTTTAG | -0.127
ATTGGGGA | -0.291
CAATAACG | -0.0393
ATGATCGG | 0.0499
ACGTTGCC | 0.0694
CCTTCGTA | -0.134
AGACATTA | -0.0429
CCATGAAG | -0.128
CGTTACTA | -0.0115
GCCGTGAA | 0.405
TACAATAA | -0.0326
AACAGCAA | -0.206
CATCTACA | -0.265
AAACTCCA | -0.117

Series 3
Target: Centromere-binding protein 1, full length, His-tagged (CBF1, Saccharomyces cerevisiae, UniProt P17106, residues 1-351)
Sequence of UniProt P17106 (whole entry, looked up): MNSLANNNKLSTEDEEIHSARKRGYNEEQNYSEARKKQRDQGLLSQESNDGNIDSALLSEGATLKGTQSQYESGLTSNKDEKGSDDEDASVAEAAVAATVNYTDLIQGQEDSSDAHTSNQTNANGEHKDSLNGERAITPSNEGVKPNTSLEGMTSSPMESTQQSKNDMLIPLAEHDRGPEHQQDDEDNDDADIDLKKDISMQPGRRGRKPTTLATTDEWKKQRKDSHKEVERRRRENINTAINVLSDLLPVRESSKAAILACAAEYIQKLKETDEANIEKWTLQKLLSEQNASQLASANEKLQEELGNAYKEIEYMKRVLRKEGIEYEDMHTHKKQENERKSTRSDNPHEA
Technique: competition protein-binding microarray
Molecule type: double-stranded DNA, one strand shown
Matrix: in vitro
Concentration: 2 µM
Setting: whole 60-bp probe, lowest competitor level
Added: Pho4 competitor, 0.05 µM
Reading: higher = stronger binding
Shared flanks, not repeated: … GTCTTGATTCGCTTGACGCTGCTG
Strand | fluorescence intensity
GTAGCTACATTGCCGTGCGTGGCAACAACCTAATTA | 62.5 a.u.
AAAGCGGTAATTTGTCTCGTGGGTGCAGATATCTAT | 125 a.u.
TGTGGATCATATCACCACGTGTTTTTTCAATCCTTT | 1380 a.u.
AGCATAATGCCGGACCATGTGAAAAGTTCACTCAAA | 113 a.u.
CGGGGTTAAGTTTTTCACGTGATTTGCTTGCAGCAG | 4000 a.u.
ATTGTTCCACCCGACCACGTGCTTTTTCATAAGGGT | 2420 a.u.
AACTAAACCTCTTCGTGCGTGATGGAGTTGGAAACG | 85.1 a.u.
CAAGGTTTTCTTTGCCACGCTCAAGCATTCATCGTT | 76.6 a.u.
GTCTTGTCTCATTGTATGGTGGGTGTCCCCACTTCA | 79 a.u.
GCGTAAGTCGCTCCACACGTACATTGCTGTGGTGCA | 60.5 a.u.

Mixed results
Substance | target | assay | test system | conditions | how to read | measurement | value
PhoQ, residues 284 288 289 292 302 303 SMMNNA | PhoP, residues 12 14 15 18 19 QWHVF (Escherichia coli, UniProt P23836) | Sort-seq, measured: YFP reporter | E. coli | PhoQ-PhoP variant library, added: 10 µM Mg2+ | baseline: high Mg2+ state, higher = stronger signaling | fold induction | 6

Repeated from above (series 2):
Strand | E-score
GCCGTGAA | 0.405
TACAATAA | -0.0326
AACAGCAA | -0.206
CATCTACA | -0.265
AAACTCCA | -0.117
